Experimental data collected from several papers.
Lines come from different studies, so protocols differ. Values joined by “and” are separate records of one study, mostly repeats; a detail may differ. ± marks the error that the study gave.

Substance	assay	system	conditions	how to read	measurement	value
COc1cc(OC)c(/C=C/S(=O)(=O)Cc2ccc(OC)c(NCC(=O)O)c2)c(OC)c1	–	cancer patients, phase I, plasma	oral, 700 mg twice daily, day 1 cycle 1	–	half-life	3.09 ± 2.18 h
O=c1c(O)c(-c2cc(O)c(O)c(O)c2)oc2cc(O)cc(O)c12	mass spectrometry	Caco-2	40 µM, 6 h	–	Papp A→B	5.55 ×10⁻⁶ cm/s
CCCC[C@H](NC(C)=O)C(=O)N[C@H]1CCC(=O)NC[C@@H](C(=O)N[C@@H](Cc2c[nH]c3ccccc23)C(N)=O)NC(=O)[C@H](CCCNC(=N)N)NC(=O)[C@@H](Cc2ccccc2)NC(=O)[C@H](Cc2c[nH]cn2)NC1=O	–	healthy human, both sexes, plasma	subcutaneous, 1.0 mg once daily, day 1, arithmetic mean	–	Vd/F	120 L
COc1ccc2nc([S@@+]([O-])Cc3ncc(C)c(OC)c3C)[nH]c2c1	–	human healthy	40 mg, folliculitis	–	adverse events	0%
CCCC[C@@H]1NC(=O)[C@@H](NC(=O)[C@H](CCC(=O)O)NC(=O)CNC(=O)CN2CCN(CC(=O)O)CCN(CC(=O)O)CCN(CC(=O)O)CC2)CCCCNC(=O)C[C@@H](C(N)=O)NC(=O)[C@H](C(C)C)NC(=O)[C@@H]2CCCN2C(=O)[C@H](CCCNC(=N)N)NC(=O)CNC(=O)[C@H](Cc2c[nH]c3ccccc23)NC(=O)[C@H](CCCNC(=N)N)NC(=O)[C@@H](Cc2ccccc2)NC(=O)[C@H](Cc2c[nH]cn2)NC(=O)[C@H](CCC(=O)O)NC1=O [indium-111 labelled]	–	normal C57 mice, spleen	intravenous, 0.037 MBq, 2 h	–	tissue uptake	0.06 ± 0.04 %ID/g
C[C@H]1Oc2cc(cnc2N)-c2c(nn(C)c2C#N)CN(C)C(=O)c2ccc(F)cc21	–	human (NSCLC and healthy)	oral and intravenous, 100 mg, PopPK, 70 kg subject	–	initial clearance	151 mL/min
CN[C@H](CC(C)C)C(=O)N[C@H]1C(=O)N[C@@H](CC(N)=O)C(=O)N[C@H]2C(=O)N[C@H]3C(=O)N[C@H](C(=O)N[C@H](C(=O)O)c4cc(O)cc(O)c4-c4cc3ccc4O)[C@H](O)c3ccc(c(Cl)c3)Oc3cc2cc(c3O[C@@H]2O[C@H](CO)[C@@H](O)[C@H](O)[C@H]2O[C@H]2C[C@](C)(N)[C@H](O)[C@H](C)O2)Oc2ccc(cc2Cl)[C@H]1O	–	pig, intervertebral disc	intravenous infusion, 1000 mg, infusion 100 min, added: MIC 4 µg/mL	–	time above MIC	156 min
Cn1c(-c2ccc(C(N)=O)cc2F)nnc1C(C)(C)Oc1c(F)cc(Cl)cc1F	–	young non-Japanese subjects, plasma	oral, 50 mg single dose, day 1	–	AUC(0-inf) range	4950 to 19800 ng·h/mL
Cc1ccc(S(=O)(=O)NC(=O)NN2CC3CCCC3C2)cc1 (centres unmarked)	HPLC	simulated gastric fluid	pH 1, 37 °C	–	stability time	6 h
CC(C)(C)NC(=O)[C@@H]1C[C@@H]2CCCC[C@@H]2CN1C[C@@H](O)[C@H](Cc1ccccc1)NC(=O)[C@H](CC(N)=O)NC(=O)c1ccc2ccccc2n1	equilibrium dialysis	cellulose membrane, cell-free	pH 7.4, no Pluronic P85	–	effective permeability	47 ± 11 ×10⁻⁶ cm/s
CO[C@@H]1[C@H](O)[C@@H](CO)O[C@H]1n1ccc(=O)[nH]c1=O	–	male CD-1 mice, small intestine without content	intravenous, 1 mg/kg, 1 h	–	share of tissue radioactivity	2.78%
COc1cc2nccc(Oc3ccc(NC(=O)NC4CC4)c(Cl)c3)c2cc1C(N)=O	–	healthy volunteers	oral, 5 mg single dose, added: ketoconazole 400 mg/day	baseline: placebo	systemic exposure	15 to 19 % increase
O=C(O)CNC(=O)c1ccccc1	–	human hemodialysis patients, plasma	pre-treatment	baseline: hemodialysis over normal subjects	total plasma concentration ratio	31
Cn1c(C(F)(F)F)cc(=O)n(-c2cc(Oc3cccnc3OCC(=O)O)c(Cl)cc2F)c1=O	–	beagle dog, male, plasma	oral, 100 mg/kg/day, 13 weeks, NOAEL of epyrifenacil	–	AUC(0-24 h)	10600 ng·h/mL
CCN(c1cc(C#CCN2CCOCC2)cc(C(=O)NCc2c(C)cc(C)[nH]c2=O)c1C)[C@H]1CC[C@H](N(C)CCOC)CC1	–	human liver microsomes	well-stirred model	–	scaled intrinsic clearance	6 ± 0.5 mL/min/kg
NC(=O)CN[C@H]1CCCNC1	capillary electrophoresis-MS	water	–	–	pKa2	8.53
Cc1nc2cccc(OCC(C)(C)C(=O)NC(C)C)c2c(N)c1C(=O)O	–	Sprague-Dawley rat, male, plasma	intravenous, 1.0 mg/kg, day 1	–	AUC(0-last)	331 ± 58 ng·h/mL
CC(=O)Oc1ccccc1C(=O)O	–	male Hartley guinea pig, anaesthetized	intravenous infusion, 10 mg/kg, 10 min infusion	baseline: baseline	QTc change	2.5 ± 1.8%
CNC(=O)c1c(C)oc2cc(Oc3ncnc4cc(OC)c(OC)cc34)ccc12	–	human, moderate hepatic impairment, plasma	oral, 2 mg, dose-corrected interim analysis	baseline: historical normal hepatic function	relative systemic exposure	≤ 2 fold
O=C(C1CCCCC1)N1CC(=O)N2CCc3ccccc3C2C1 (centres unmarked)	shake-flask	Captex 355	37 °C	–	thermodynamic solubility	13 ± 0.48 mg/g
COc1c(N2C[C@@H]3CCCN[C@@H]3C2)c(F)cc2c(=O)c(C(=O)O)cn(C3CC3)c12	–	healthy adults	oral, 400 mg, 2-9 h post dose	baseline: placebo	QTc change	~10 ms

Substance	assay	system	conditions	how to read	measurement	value
COC(=O)Nc1nc2ccc(Sc3ccccc3)cc2[nH]1	shake-flask	soybean oil	37 °C	–	thermodynamic solubility	0.09 ± 0.01 mg/g
C[N+]1(CC(=O)OC2CCCCCCCCCCC2)CCSCC1	metabolic stability	male CD-1 mouse, liver microsomes	1 µM, pH 7.4	–	microsomal CLint	346 µL/min/mg
CS(=O)(=O)OC[C@H](O)[C@@H](O)COS(C)(=O)=O	–	Wistar rat, female, plasma	intraperitoneal, 500 mg/kg, 4 h	–	concentration	94 µM
CC(C)=CCc1c(O)c(CC=C(C)C)c2oc3c(O)ccc(O)c3c(=O)c2c1O	–	Balb/c nu/nu mice, HT-29 xenograft, tumour tissue	oral, 901 mg/kg xanthones in diet, 2 weeks after implantation	–	free tumour concentration	110 ± 50 ng/g
c1cc(-c2c[nH]c3nccc(N4CCC[C@@]5(CCCCN5)C4)c23)ncn1	–	FVB mice, blood	topical, repeated 25 µg	baseline: single 10 µg dose	blood concentration ratio	4 fold
GMMYRS	substrate, gel electrophoresis	peptide, mouse, PyMT tumour, PyMT tumour tissue extract	5 µM, 16 h, 37 °C, 2% extract, 1 mM ZnCl2	–	peptide cleavage	> 80% and > 90%
O=C1N=C(N2CCOCC2)CN1c1ccc(Cl)cc1	–	beagle dog, both sexes, plasma	oral, 30 mg/kg, tablets, fasted, day 0	–	Vz/F	0.556 L/kg
C=CC(N)CCC(=O)O (centres unmarked)	–	male Sprague-Dawley rat, plasma	oral, 10 mg/kg, formulation 8, added: infant formula 1500 mg/kg	–	Tmax (median)	0.67 h
C[C@H](Oc1ccc(-c2nc(-c3ccc4[nH]cnc4c3)no2)cc1C(F)(F)F)C(F)(F)F	–	cynomolgus monkey, aneurysm model, plasma	0.1 mg/kg once daily, 1 h post-dose, 2 weeks dosing	–	plasma concentration	0.011 ± 0.0035 µM
COc1c(OCCCN2CCOCC2)ccc2c1N=C(NC(=O)c1cnc(N)nc1)N1CCN=C21	–	human patients, plasma	intravenous, 0.4 mg/kg weekly, cycle 1 day 15, added: refametinib 30 mg twice daily oral	–	AUC(0-25 h)	743 ng·h/mL
N[C@@H](CC(=O)N1CCn2c(nnc2C(F)(F)F)C1)Cc1cc(F)c(F)cc1F	–	healthy Korean subjects, plasma	oral, 100 mg single dose, ABCB1 C3435T CC	–	AUC(0-2 h)	471 ± 196 ng·h/mL
COC1=CC(=O)C[C@@H](C)[C@]12Oc1c(Cl)c(OC)cc(OC)c1C2=O	shake-flask	Captex 355	37 °C	–	thermodynamic solubility	1 ± 0.04 mg/g
Cc1cc(Nc2ncc(Cl)c(Nc3ccccc3S(=O)(=O)C(C)C)n2)c(OC(C)C)cc1C1CCNCC1	refers to: unbound drug	human, plasma	oral, 750 mg/day fasted, after daily dose 9	–	AUC(tau) at steady state	0.602 µM·h
Cc1ncnc2c1c(Cl)cn2[C@@H]1O[C@H](CO)[C@@H](O)[C@H]1O	metabolic stability	mouse, liver microsomes	1 h	–	compound remaining	98%
CC(C)/N=c1\cc2n(-c3ccc(Cl)cc3)c3ccccc3nc-2cc1Nc1ccc(Cl)cc1	shake-flask	polysorbate 80	37 °C	–	thermodynamic solubility	15.6 ± 1.04 mg/g
O=C(CCCCCCC(=O)Nc1ccccc1)NO	–	patients, serum	oral, 600 mg, cycle 1 day 2, added: flavopiridol 30+30 mg/m2	–	AUC(0-7 h)	15.2 µM·h
CCCCN(CCCC)CCC(O)c1cc2c(Cl)cc(Cl)cc2c2cc(C(F)(F)F)ccc12 (centres unmarked)	shake-flask	polysorbate 80	37 °C	–	thermodynamic solubility	25 ± 1.6 mg/g
C[C@@H]1CN(c2c(F)c(N)c3c(=O)c(C(=O)O)cn(C4CC4)c3c2F)C[C@H](C)N1	–	male Hartley guinea pig, anaesthetized	intravenous infusion, 10 mg/kg, 10 min infusion	baseline: baseline	QTc change	9.8 ± 1.7%
O=C(O)[C@H](c1ccccc1Cl)N1CCc2sccc2C1	HPLC-MS/MS	feline citrate plasma	24 h, 4 °C, storage stability	–	deviation from nominal	11%
N[C@@H](CC(=O)N1CCn2c(nnc2C(F)(F)F)C1)Cc1cc(F)c(F)cc1F	–	adult UCB transplant recipients, plasma	oral, 600 mg four times, observed median	–	log AUC(0-24h)	9.23 ng·h/mL
